Published values from different studies.
Values joined by “and” are separate records of one study, mostly repeats; a detail may differ.
Target: STE20-like serine/threonine-protein kinase (SLK, Homo sapiens, UniProt Q9H2G2)
Sequence of UniProt Q9H2G2 (whole entry, looked up): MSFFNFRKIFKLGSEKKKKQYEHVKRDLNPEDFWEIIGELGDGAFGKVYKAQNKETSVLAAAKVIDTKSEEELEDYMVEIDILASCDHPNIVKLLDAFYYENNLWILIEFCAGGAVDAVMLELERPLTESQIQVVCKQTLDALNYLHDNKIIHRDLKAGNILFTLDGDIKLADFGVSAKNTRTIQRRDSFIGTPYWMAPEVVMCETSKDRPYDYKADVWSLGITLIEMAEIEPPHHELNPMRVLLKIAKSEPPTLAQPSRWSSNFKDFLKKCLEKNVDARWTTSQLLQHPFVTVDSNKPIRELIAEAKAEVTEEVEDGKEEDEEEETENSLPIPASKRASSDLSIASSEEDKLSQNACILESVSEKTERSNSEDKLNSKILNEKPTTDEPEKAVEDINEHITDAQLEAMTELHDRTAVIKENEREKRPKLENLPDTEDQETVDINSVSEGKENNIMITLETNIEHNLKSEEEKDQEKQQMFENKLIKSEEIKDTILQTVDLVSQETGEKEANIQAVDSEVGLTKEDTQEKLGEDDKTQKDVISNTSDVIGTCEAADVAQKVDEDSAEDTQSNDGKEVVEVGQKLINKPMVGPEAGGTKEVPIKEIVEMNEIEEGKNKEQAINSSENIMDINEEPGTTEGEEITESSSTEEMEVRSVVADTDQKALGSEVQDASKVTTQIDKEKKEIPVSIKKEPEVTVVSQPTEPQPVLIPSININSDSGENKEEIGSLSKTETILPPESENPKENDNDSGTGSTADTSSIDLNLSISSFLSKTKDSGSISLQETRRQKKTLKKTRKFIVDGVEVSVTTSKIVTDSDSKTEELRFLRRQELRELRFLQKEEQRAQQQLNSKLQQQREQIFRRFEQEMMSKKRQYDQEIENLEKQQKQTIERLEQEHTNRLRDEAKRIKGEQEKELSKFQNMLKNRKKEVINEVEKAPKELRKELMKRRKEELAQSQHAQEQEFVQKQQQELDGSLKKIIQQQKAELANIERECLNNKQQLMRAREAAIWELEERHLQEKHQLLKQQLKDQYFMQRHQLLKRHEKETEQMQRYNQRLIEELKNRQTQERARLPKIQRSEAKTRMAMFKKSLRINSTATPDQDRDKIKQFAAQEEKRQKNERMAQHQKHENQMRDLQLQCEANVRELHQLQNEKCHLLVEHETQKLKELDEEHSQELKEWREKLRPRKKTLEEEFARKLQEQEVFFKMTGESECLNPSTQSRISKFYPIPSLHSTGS

SMILES	assay	system	setting	scale	quantity	result
Cc1cccc(O[C@H]2CCC[C@@H](C(C)CNCc3ccncc3)C2)c1 (relative stereo)	enzyme activity, inhibitor	–	10 µM	–	inhibition	-6%
CCN1CCN(Cc2ccc(C(=O)Nc3ccc(C)c(NCc4cnc5[nH]ccc5c4OC)c3)cc2C(F)(F)F)CC1	binding, competition with immobilised ligand	–	1 µM	–	remaining binding	2.1%
COc1cc(Nc2nc(C)cc(-c3cnn4nc(OC)ccc34)n2)cc(C(F)(F)F)c1	binding, competition with immobilised ligand	–	1 µM	–	remaining binding	88%
C[C@]1(O)CCCN(c2nc(Nc3ccc(S(=O)(=O)N[C@H]4CC[C@H](CN5CCN(c6ccc(C7CCC(=O)NC7=O)cc6F)CC5)CC4)cc3)ncc2C(F)(F)F)C1 (stereo partly drawn)	binding, competition with immobilised ligand	–	1 µM	–	remaining binding	1.5%
Cc1ccc(-c2c(/C=C(\C#N)C(=O)NC(C)C)n(CCCO)c3ncnc(N)c23)cc1	cell-free assay, competition with immobilised ligand	–	1 µM	–	remaining binding	91%
CNC(=O)C[C@H](Cc1ccc(C#N)cc1)NC(=O)c1cc(-c2ccc(CN[C@H](C)c3ccc(C)cc3)o2)ccc1Cl	enzyme activity, inhibitor	–	1 µM	–	activity vs control	116%
CC(C)=CC1OC(C)(C)C2C=C3C(=O)C(Cl)=CC(O)C3C3C(O)C4OC4C(=O)C132 (stereo not drawn)	cell-free assay, competition with immobilised ligand	–	10 µM	–	remaining binding	96%
C=CC(=O)Nc1cccc(-c2cnc3[nH]cc(C(=O)NC(C)(C)C)c3n2)c1	enzyme activity, inhibitor	–	0.1 µM	–	inhibition	9%
C=CC(=O)N1CCCC(n2c(=O)c3ncccc3n(Cc3ccc(Oc4ccccc4)cc3)c2=O)C1 (stereo not drawn)	cell-free assay, competition with immobilised ligand	–	1 µM	–	remaining binding	98%
CCn1cc(C(=O)O)c(=O)c2c(N)c(F)c(NC3CCCCC3)cc21	kinase activity	–	0.1 µM, with: ATP at Km	–	inhibition	-6%
NC(=O)[C@@H](O)C[C@H]1CCc2sc3ncnc(O[C@H]4CC[C@H](N5CCOCC5)CC4)c3c21	enzyme activity, inhibitor	–	10 µM	–	inhibition	4%
Cc1ccc(C(=O)Nc2ccc(CN3CCN(C)CC3)c(C(F)(F)F)c2)cc1C#Cc1cnc2cccnn12	target engagement, NanoBRET	human cells	–	–	upper asymptote	52.4
N[C@H]1CC[C@H](Nc2nccc(-c3cccnc3Oc3ccc(NC(=O)NC4CC4)c4ccccc34)n2)CC1	kinobead competition pulldown	HEK293/HCT116 lysate mixture	10 µM, 1 h, 4 °C	lower = stronger competition	log2 LFQ intensity	28 and 27.9 and 27.8
O=C(Cc1ccc(OCc2ccccc2)cc1)NC1(C(=O)O)CCN(C(=O)c2ccc(-c3cccc(Cl)c3)cc2)CC1	enzyme activity, inhibitor	–	10 µM	–	activity vs control	144%
C=CC(=O)N1CCc2ccc(-n3c(=O)ccc4cnc5ccc(-c6cnn(C)c6)cc5c43)cc21	KINOMEscan	–	1 µM	reference: DMSO control	remaining binding	100%

A few entries again:
SMILES	assay	system	setting	scale	quantity	result
CCN1CCN(Cc2ccc(C(=O)Nc3ccc(C)c(NCc4cnc5[nH]ccc5c4OC)c3)cc2C(F)(F)F)CC1	binding, competition with immobilised ligand	–	1 µM	–	remaining binding	2.1%
Cc1ccc(-c2c(/C=C(\C#N)C(=O)NC(C)C)n(CCCO)c3ncnc(N)c23)cc1	cell-free assay, competition with immobilised ligand	–	1 µM	–	remaining binding	91%
